Results collected from several papers.
Numbered parts are unrelated; each lists some results of a single study.

Series 1
Target: RNA binding protein fox-1 homolog 2, RRM domain, GST-SBP tag (RBFOX2, Homo sapiens, UniProt O43251-10, residues 100-194)
Technique: RNA Bind-n-Seq
Molecule type: RNA
Matrix: in vitro
Concentration: 365 nM
Setting: natural RNA segment, single round, ends assumed
Baseline: no-protein control
Reading: higher = stronger binding
Shared flanks, not repeated: GGGAGUUCUACAGUCCGACGAUC … UGGAAUUCUCGGGUGCCAA
Residues (chain): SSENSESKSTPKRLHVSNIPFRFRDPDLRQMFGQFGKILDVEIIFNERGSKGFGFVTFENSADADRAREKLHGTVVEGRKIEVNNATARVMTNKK
Under “RBNS enrichment (R)”, `AGUUUUCAUUUAAACACUUAGUUCAGAAACCUUAAAGGAUUUGAAUAUUUCAAAUUGCACACGUCACUCCAGCAUCUCUGUAAAAUAAUUGGAAUGAAAAUACUUCUUGC` is recorded as 1.31.
`GAUGGAGUUGGUGACAAGAGCAGAGGAGCAAGAAUCCCUGCAAGCAGUAGACUGGUUUCCACUGGAGGGUGAAUGCAGAUACCUUUUAUUAACGAUAUACUUACUAAAUG`: “RBNS enrichment (R)” 1.59.
Under “RBNS enrichment (R)”, `CUGGGGGACUUGGGGGCCAUUUCCUUUGCCCUUUUUUUUUGUUGUUAUUCUAUUUUGUACAGACAAGUUGGGAAAACAACAGCGACAAAAAAAAGUCGAGAAACUUUGUA` is recorded as 0.537.
For `ACCUAGGUCUUGUCUUUCAACUUGUUGGUAGAAGUUACAAAUUAUUCUCAAAACUGUCUGUCUCAUCAUGAGGAAAAAGGAACUUUCUUUUGUUCCUAUUCAGGACUUGA`, “RBNS enrichment (R)” read 0.279.
Under “RBNS enrichment (R)”, `CAUGCCAACAUGGUUCAUUUCCAAGGGCACCCUAUAACCAGAGAGCACAUUAAUUCCUGUCCUAUAAGAGGGCUGUGGGAAACUGUGUACCUGGAGGUGGUCCAUGCCAG` is recorded as 0.23.
For `GCCAGAAUCCACUGGCCUCUGUCUCAUUCUUGGGUUUUCCUGCUGUCUUCGUUUACGUCUCUGUCCACAUGUCAGUGUAUUAAAACCCCAAUGGGUUCCGUUUCUCCUUU`, “RBNS enrichment (R)” read 0.264.
For `ACUUUUAUGCAGCAAAUAUAUGAUUCUAGUGUCUGACUUUUGUUAAAUUCAGUAAUGCAGUUUUUAAAAACCUGUAUCUGACCCACUUUGUAAUUUUUGCUCCAAUAUCC`, “RBNS enrichment (R)” read 0.696.
`AGGCUUCCCAUUGCUGCUGCUACCGGUUCUCCACAGAUCCCUGUGGUCCGCCAUCGCCGACACACACACACGUCGUAAUGUGGCUAACGCUUGACUCACUUAACACUACU` — result for “RBNS enrichment (R)”: 0.332.
`CAUAUACUGGGUAUCCAAGCUCUGGGAAGUUAUCCUACCAGGCCCUGAUCUGUUGAUAAGGCACUAUACACCAUGCUGGUGUGUUCUGUAGCCUUGUGCCCAUUAGGUAA`: “RBNS enrichment (R)” 0.254.
`GCAGAGCUUGCAUUGGGUUUACCUCGGUCUCAUUCAUUCAUGGAGCCAAGGGUGGGGUUUCACCUGCGAACAUCAGACUGACUUGCUGGCGUCAAGAGCAGUUGACUCAC` — result for “RBNS enrichment (R)”: 0.565.
Under “RBNS enrichment (R)”, `ACCACUCCAGUGCAUUUCCGCCUGGCUCCUAGAAGCCCCAUUCAAUAUCACUACUCUUUAACGAGUGCCAAAUCUUUUCCCACUUUUGCUCUUCCCCAAGGAACUGCUCC` is recorded as 0.45.
For `GAACUUUCACAAUGCUUUCCUAGGUAGGACCUGGCAGUUUGGCAGUGCCUUCAGUUUAGCAUUGCUAUAAAAUGAACCCUGAAUUAGCGAAACAGUGUAACAUUAUUCUG`, “RBNS enrichment (R)” read 0.24.

Series 2
Target: Ras GTPase-activating protein-binding protein 1, full length (G3BP1, Homo sapiens, UniProt Q13283)
UniProt Q13283, sequence (whole entry, looked up): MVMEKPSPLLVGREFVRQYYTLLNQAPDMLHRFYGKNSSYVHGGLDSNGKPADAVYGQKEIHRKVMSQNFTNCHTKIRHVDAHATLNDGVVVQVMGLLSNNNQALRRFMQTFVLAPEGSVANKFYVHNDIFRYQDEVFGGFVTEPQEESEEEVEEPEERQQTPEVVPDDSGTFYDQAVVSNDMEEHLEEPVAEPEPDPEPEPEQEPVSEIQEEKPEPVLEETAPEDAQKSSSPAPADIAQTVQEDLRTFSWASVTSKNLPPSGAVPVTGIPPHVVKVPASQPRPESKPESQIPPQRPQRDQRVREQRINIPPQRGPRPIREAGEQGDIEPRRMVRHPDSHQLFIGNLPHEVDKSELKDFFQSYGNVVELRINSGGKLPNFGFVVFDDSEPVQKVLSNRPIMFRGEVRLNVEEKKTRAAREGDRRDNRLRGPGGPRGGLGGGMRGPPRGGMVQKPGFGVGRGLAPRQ
Technique: RNA Bind-n-Seq
Molecule type: RNA
Matrix: in vitro
Concentration: 200 nM
Setting: whole 134-nt RNA, ends assumed
Together with: 150 mM LiCl
Baseline: input library
Reading: higher = stronger binding
Each molecule: 7-deaza-guanosine replaces G
Shared flanks, not repeated: GGGAGUUCUACAGUCCGACGAUC … UGGAAUUCUCGGGUGUCAAGG
The log2 enrichment of `UCCUGUGCUACACAUCGUAUGUACCGAAUCGGGGUUUUUGGGGAAAGGGGAAAAAGGGGAAAGUAUUAUGUUACGCCGUUCGGAUCUGCA` is reported as 0.141.
`AGUCCUGUGCUACACAUCGUAUGUACCGAAUCGGGGAAAAAGGGGUUUGGGGAGGGGAAAGUAUUAUGUUACGCCGUUCGGAUCUGCACU` has a log2 enrichment of -0.58.
`ACCAUGCAGGUGGGCAUCUUUGGGAAGUGGGGCAAGGGGGGGAUAGGGAGGGGGGUAACACUUUGGGAACAGAUGGUCCCAGGUCGUUUC` gave a log2 enrichment of 0.434.
`AGUCCUGUGCUACACAUCGUAUGUACCGAAUCGGGGAAAAGGGAAAAGGGAAAAGGGAAAGUAUUAUGUUACGCCGUUCGGAUCUGCACU` gave a log2 enrichment of -0.7.
For `AGUCCUGUGCUACACAUCGUAUGUACCGAAUCGGGGUUUUGGGGUUUUGGGUUUUGGAAAGUAUUAUGUUACGCCGUUCGGAUCUGCACU`, the log2 enrichment was -0.292.
`CACAGACAACACGCACCCACACAGACACAGAGGGAAGGGGUUGGGAUGGGGACAGGGUGCACAGCAGGGCGGGGUAGGACCCCCGCCCCU` has a log2 enrichment of -1.4.
`UAACUUUAGAGGAGGAUCUGAUGGAUAUGGCAGUGCACGUGGAUUUGGGGAUGGCUAUAAUGGGUAUGGAGGAGGACCUGGAGGUGGCAA` gave a log2 enrichment of -0.354.
With `AGUCCUGUGCUACACAUCGUAUGUACCGAAUCGGGGUUUGGGGUGGGGUUUUUGGGGAAAGUAUUAUGUUACGCCGUUCGGAUCUGCACU` the log2 enrichment was -0.00573.
`AGUCCUGUGCUACACAUCGUAUGUACCGAAUCGGGGUUUUGGGUUUUGGGGUUUUGGGAAAGUAUUAUGUUACGCCGUUCGGAUCUGCAC` gave a log2 enrichment of 0.136.
`UCCUCAAGUCCUGUGCUACACAUCGUAUGUACCGAAUCGGUUUGGUGGAGGAAAGUAUUAUGUUACGCCGUUCGGAUCUGCACUUCCAGC` has a log2 enrichment of -0.662.
With `ACCAUGCAGGUGGGCAUCUUUGGGAAAUGGGGCAAGGGGGGGAUAGGGAGGGGGGUAACACUUUGGGAACAGGUGGUCCCAGGUCGUUUC` the log2 enrichment was 0.223.

Series 3
Target: Histone acetyltransferase KAT6A, winged helix 1, GST fusion (KAT6A, Homo sapiens, UniProt Q92794, residues 1-85)
Technique: protein binding microarray
Molecule type: double-stranded DNA, one strand shown
Matrix: in vitro
Concentration: not given
Setting: 8-mer, flanks averaged, mean of 2 arrays, mostly near background
Baseline: not given
Reading: higher = stronger binding
Construct (chain): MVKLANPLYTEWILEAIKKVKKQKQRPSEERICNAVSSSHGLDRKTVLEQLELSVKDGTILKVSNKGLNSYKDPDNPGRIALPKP
With `CCCCGGAA` the E-score was 0.0611.
`ATATGTCC` gave an E-score of -0.0303.
`AATTTTCG` has an E-score of -0.0912.
`GGGCAGAA` has an E-score of -0.0789.
`GGGAGATA` gave an E-score of -0.0136.
For `AACATTCC`, the E-score was -0.00344.
For `AAACGCTC`, the E-score was 0.12.
With `ACTGCCAA` the E-score was -0.121.
`GCGTCCGA` has an E-score of 0.274.
With `AGACCGTG` the E-score was 0.214.
`AGAAATGA` has an E-score of -0.222.
For `TCTGAACA`, the E-score was -0.0472.
With `ACGGTCCC` the E-score was 0.29.
`TCGTCCCA` has an E-score of -0.179.
`ATGACTGA` gave an E-score of -0.136.
For `GGCTCTAA`, the E-score was -0.0059.

Series 4
Target: Interferon regulatory factor 5, full length, phosphomimetic (IRF5, Homo sapiens, UniProt Q13568-2, residues 1-514, S451D/S453D/S456D/S462D)
Technique: protein-binding microarray
Molecule type: double-stranded DNA, one strand shown
Matrix: in vitro
Concentration: 940 nM top
Setting: 60-bp whole probe
Together with: salmon DNA 0.4 mg/ml
Baseline: random background probes
Reading: higher = stronger binding
Shared flanks, not repeated: GCCTAGCAC … GTCTTGATTCGCTTGACGCTGCTG
`GACGATCTCGGTATCGAGACGTGCTAG`: “fitted relative affinity” 2.72 z-score.
For `TCATTTCTCTTTCACTAACTGTGCTAG`, “fitted relative affinity” read 2.87 z-score.
`TTAGGACTGGGGTTTCGATTAGTGCTA` — result for “fitted relative affinity”: 5.03 z-score.
For `TCACATCTCTCTTAAATACTGTGCTAG`, “fitted relative affinity” read 1.27 z-score.
Under “fitted relative affinity”, `TCAAAACTCGTGTTTTTCACTGTGCTA` is recorded as -0.118 z-score.
Under “fitted relative affinity”, `GACGGTCTCCTTTTCGTGACGTGCTAG` is recorded as 0.671 z-score.
For `GACGATTGCAGTTCCGAGACGTGCTAG`, “fitted relative affinity” read -0.138 z-score.
`GACTAACTGGGGACTGGAGACGTGCTA` — result for “fitted relative affinity”: -0.101 z-score.
Under “fitted relative affinity”, `TTAGGTTTCGGTATCGGTTGGTGCTAG` is recorded as 15.2 z-score.
`TTAGATTTCGGGTATCGATCAGTGCTA`: “fitted relative affinity” 3.46 z-score.
For `TTAGGTCTCGGTCTCGGTTTGTGCTAG`, “fitted relative affinity” read 5.82 z-score.
Under “fitted relative affinity”, `TTTCCCATGAGTCTCAAAATGTGCTAG` is recorded as 0.995 z-score.
`TCACACATTTTTTTCATACTGTGCTAG` — result for “fitted relative affinity”: 1.54 z-score.
Under “fitted relative affinity”, `TTAGGATTCGGGACTGGGTTAGTGCTA` is recorded as 0.131 z-score.
`GAGGGTTTCCTACTGCTGACGTGCTAG` — result for “fitted relative affinity”: 0.444 z-score.
For `TTTAAGCTCCTATCTTATGATGTGCTA`, “fitted relative affinity” read 0.0793 z-score.
For `TCACACTCCAGTCTGGGACTGTGCTAG`, “fitted relative affinity” read 0.198 z-score.
`ATAGATTTCAGTTTCGATTAGTGCTAG`: “fitted relative affinity” 9.15 z-score.
`GACGGACTGCTTATCCTTACGTGCTAG`: “fitted relative affinity” -0.259 z-score.
Under “fitted relative affinity”, `GACGGTTTCGGACTGTGGACGTGCTAG` is recorded as 5.68 z-score.
`GAGTGGTTCTGCTTCTTAGCGTGCTAG` — result for “fitted relative affinity”: 0.151 z-score.
Under “fitted relative affinity”, `GACCGTTTCCTTTTCCTGACGTGCTAG` is recorded as 1.61 z-score.
`TTAGATTTCGGTTATCGATTAGTGCTA` — result for “fitted relative affinity”: 3.25 z-score.

A few entries again (series 3):
`GGGCAGAA` has an E-score of -0.0789.
`GGGAGATA` gave an E-score of -0.0136.
For `AACATTCC`, the E-score was -0.00344.
For `AAACGCTC`, the E-score was 0.12.
With `ACTGCCAA` the E-score was -0.121.
`GCGTCCGA` has an E-score of 0.274.
With `AGACCGTG` the E-score was 0.214.
`AGAAATGA` has an E-score of -0.222.
For `TCTGAACA`, the E-score was -0.0472.
